# Experimental data of several laboratories.
# Numbered parts are unrelated; each lists some results of a single study. ± marks the error that the study gave.

# Sample 1
# Organism: SARS-CoV-2 Wuhan spike VSV pseudovirus
# Observed: pseudovirus entry
# Tested at: concentration not given
Structure (SMILES),inhibition [%]
CCOC(=O)c1cc(C#N)c2ccccn2c1=O,40
COc1ccc(CNCCC(Cc2ccccc2)c2ccco2)cc1 (stereo not drawn),46
Cc1n[nH]c(C)c1C(NC(=O)CSC12CC3CC(CC(C3)C1)C2)C(=O)O (stereo not drawn),38
Cc1csc(NC(=O)C2CCN(S(=O)(=O)c3cc(C(=O)N4CCCCCC4)cs3)CC2)n1,38
Oc1c(Cl)cc(Cl)cc1C1Nc2cc(Cl)c(C(F)(F)F)cc2N1 (stereo not drawn),37
Cc1ccc(Nc2cc(C)nc(N3CCN(C(=O)c4ccco4)CC3)n2)cc1,39
CCOC(=O)C1CCCN(c2ccc(-c3ccc(C)c(S(=O)(=O)N4CCOCC4)c3)nn2)C1 (stereo not drawn),42
CCN(CC)S(=O)(=O)N1CCC(C(=O)Nc2cccc(CCc3nc4cc(C)ccc4[nH]3)c2)CC1,47
CC(C)C1CN(C(=O)c2ccc3cccnc3c2O)CCCN1CC1CC1 (stereo not drawn),51
CO[C@@H]1[C@@H](O[C@@H]2O[C@H](C)[C@@H](O[C@H]3C[C@@](C)(O)[C@@H](O)[C@H](C)O3)[C@H](N(C)C)[C@H]2O)[C@@H](CC=O)C[C@@H](C)[C@@H](O[C@H]2CC[C@H](N(C)C)[C@@H](C)O2)/C=C/C=C/C[C@@H](C)OC(=O)C[C@H]1O,43
Cc1cc(Sc2ccc3c(c2)OCCCO3)n2ncnc2c1,40
CCOC(=O)C1CCN(S(=O)(=O)c2ccc3c(c2)N(C(C)=O)CCCS3)CC1,36
O=C(c1ccc(-n2cnnc2)cc1Cl)N1CCN(CCOc2ccc(Cl)cc2)CC1,44
O=C(O)c1cc2ccc(O)cc2oc1=O,45
Cc1oc2ncnc(N3CCC(C(=O)NCCc4cccs4)CC3)c2c1C,38
CC(C)(C)OC(=O)N1CCN(c2ncnc3sccc23)CC1,38
CC(C)Nc1ncc(CN2CCC(c3ccnc(-c4ccc5c(c4)OCO5)c3)C2)cn1 (stereo not drawn),37
CN(C)c1ccc(/C=C/c2ccc3ccccc3[n+]2C)cc1,38
COC[C@@H]1CN(C(=O)c2cc(C3CC3)[nH]n2)C[C@H]1c1nc(C2CC2)no1,40
Cc1nc2ccccn2c1CC(=O)NCc1nc(-c2ccccc2)no1,44
Cc1ccc(NC2CCCN(C(=O)c3cc(=O)c4ccccc4o3)C2)cc1C (stereo not drawn),42
Cc1nc(-c2cccc(Cl)c2)n(CC(=O)NCc2cccs2)c(=O)c1CCO,41
Cc1ccsc1C(=O)N1CCN2C(=O)CNC(=O)C2C1 (stereo not drawn),39
O=C(Oc1cccc2c1C(=O)C=CC2=O)c1ccccc1,36
c1nc(NCCc2ccc3c(c2)OCCO3)c2c3c(sc2n1)CCCC3,36

# Single results of other studies
# rep nsp14: Replicase polyprotein 1ab, nsp14 (rep, Severe acute respiratory syndrome coronavirus 2, UniProt P0DTD1)
# rep papain-like protease: Replicase polyprotein 1ab, papain-like protease (rep, Severe acute respiratory syndrome coronavirus 2, UniProt P0DTD1)
# rep nsp12 RdRp: Replicase polyprotein 1ab, nsp12 RdRp (rep, Severe acute respiratory syndrome coronavirus 2, UniProt P0DTD1)
SMILES,tested on,assay,system,conditions,how to read,quantity,result
CN(C)CCn1c(C(=O)N2CCN(c3ccccc3Cl)CC2)c(C(c2ccc(O)cc2)c2ccc(O)cc2)c2ccccc21,SARS-CoV-2,"viral replication, inhibitor","Vero E6, USA-WA1/2020",24 h,,EC90,~1420 nM
COc1nc2ccc(Br)cc2cc1[C@@H](c1ccccc1)[C@@](O)(CCN(C)C)c1cccc2ccccc12,Mycobacterium tuberculosis,,H37Rv Pks13 resistant mutants,,,MIC,0.31 µM
CC1CC(c2cccc(C(=O)O)c2)=NN1c1ccc(C#N)c(Cl)c1 (stereo not drawn),SARS-CoV-2,viral replication,"Calu-3, B.1.617.2 Delta variant",72 h,,EC50,32.7 µM
O=C(NC1CCN(c2ncnc3[nH]cnc23)CC1)c1cccc(S(=O)(=O)N2CCC2)c1,rep nsp14,"NSP14 enzyme activity, inhibitor",,12.5 µM,,inhibition,82.5%
N#C[C@@]1(n2ccc(N)nc2=O)O[C@H](CO)[C@@H](O)[C@H]1O,SARS-CoV-2,viral replication,"Vero, Beta",,,EC90,3000 ± 200 nM
O=c1oc2cc(O)cc(O)c2c2oc3cc(O)c(O)cc3c12,rep papain-like protease,,,"concentration not given, C111S mutant",reference: positive control,activity,20.5%
NNC(=O)c1ccncc1,Mycobacterium tuberculosis,Alamar blue,"22/22, SIRE and linezolid resistant","21 days, 37 °C",,MIC,32 µg/mL
CCCCCCC#Cc1cncc(-c2nnc(SCc3ccc([N+](=O)[O-])o3)n2C2CC2)c1,Mycobacterium tuberculosis,MABA,Erdman M3 FbiC P367S mutant,,,IC50,> 1000 nM
CC(C)Nc1nc2cc(Cl)c(Cl)cc2n1[C@H]1O[C@@H](CO)[C@H](O)[C@@H]1O,SARS-CoV-2,viral replication,"Vero C1008, Omicron BA.1","48 h, reduction of infectious virus",,EC90,12200 ± 330 nM
CC1(C)[C@@H](O[C@H]2O[C@H](C(=O)O)[C@@H](O)[C@H](O)[C@H]2O[C@@H]2O[C@H](C(=O)O)[C@@H](O)[C@H](O)[C@H]2O)CC[C@]2(C)[C@H]3C(=O)C=C4[C@@H]5C[C@@](C)(C(=O)O)CC[C@]5(C)CC[C@@]4(C)[C@]3(C)CC[C@@H]12.N.N,rep nsp12 RdRp,"binding, biolayer interferometry",,concentration not given,,BLI response,-0.01 nm
CCC(CC)COC(=O)[C@H](C)N[P@](=O)(OC[C@H]1O[C@@](C#N)(c2ccc3c(N)ncnn23)[C@H](O)[C@@H]1O)Oc1ccccc1,SARS-CoV-2,viral replication,"Vero, Alpha",,,EC90,1000 ± 700 nM
CC[C@H](C)[C@@H]1NC(=O)[C@H](CCC(N)=O)NC(=O)[C@H](CCC(=O)O)NC(=O)[C@H](CCCNC(=N)N)NC(=O)[C@@H]2CCCN2C(=O)[C@H](CCCNC(=N)N)NC(=O)[C@H](CCCNC(=N)N)NC(=O)[C@H](Cc2ccc(O)cc2)NC(=O)CSC[C@@H](C(=O)NCC(N)=O)NC(=O)[C@H](Cc2ccccc2)NC(=O)[C@H](C(C)C)NC(=O)[C@H](Cc2c[nH]c3ccccc23)NC(=O)[C@H](CC(C)C)NC(=O)[C@H](CO)NC(=O)CNC(=O)[C@H]([C@@H](C)CC)NC(=O)[C@H]([C@@H](C)CC)NC1=O,SARS-CoV-2 spike protein Delta variant,binding,,,,Kd,50 nM
NCC12CC3CC(CC1C3)C2,"Matrix protein 2 (Influenza A virus, UniProt P0DOF5, V27A)",,,"concentration not given, pH 5.5, cell-based",,inhibition,0%
CCC(CC)[C@H](NC(C)=O)[C@@H]1[C@H](O)[C@@H](C(=O)O)C[C@H]1N=C(N)N,"neuraminidase (Influenza B virus, UniProt C0LT34, I221L)",,,,,IC50,37.7 ± 1.6 nM
CCC(CC)COC(=O)[C@H](C)N[P@](=O)(OC[C@H]1O[C@@](C#N)(c2ccc3c(N)ncnn23)[C@H](O)[C@@H]1O)Oc1ccccc1,Severe acute respiratory syndrome coronavirus 2,"viral replication, inhibitor",Vero C1008,,,IC50,1540 nM
CC(C)(C)[C@H](NC(=O)C(F)(F)F)C(=O)N1C[C@H]2[C@@H]([C@H]1C(=O)N[C@H](C#N)C[C@@H]1CCNC1=O)C2(C)C,SARS-CoV-2,viral replication,"VeroE6/TMPRSS2, Omicron variants",0.9 µM,,inhibition,100%
O=[N+]([O-])c1cn2c(n1)OC[C@@H](OCc1ccc(OC(F)(F)F)cc1)C2,Mycobacterium tuberculosis,,H37Rv Pks13 resistant mutants,,,MIC,0.31 µM
CCCCCCC#Cc1cncc(-c2nnc(SCc3cc([N+](=O)[O-])cc([N+](=O)[O-])c3)n2C)c1,Mycobacterium tuberculosis,,H37Rv mc2-6206 MmpL3 G253E,,,MIC80,2.2 µM
O=C1c2c(O)c(=O)ccn2N([C@@H]2c3ccccc3SCc3c2ccc(F)c3F)[C@@H]2COCCN12,influenza A(H1N1)pdm09 virus,plaque reduction,rg-A/California/04/2009 PA-I38T,,,EC50,0.0137 ± 0.00071 µM
CC(C)(C)CC(C)(C)c1cc(Cc2cc(C(C)(C)CC(C)(C)C)cc(-n3nc4ccccc4n3)c2O)c(O)c(-n2nc3ccccc3n2)c1,rep nsp12 RdRp,"binding, biolayer interferometry",,concentration not given,,BLI response,0.01 nm
CCC1CC(c2ccc(C(=O)O)cc2)=NN1c1ccc(C#N)c(Cl)c1 (stereo not drawn),SARS-CoV-2,viral replication,"Calu-3, B.1.617.2 Delta variant",72 h,,EC50,24.1 µM
N=C(N)NCC12CC3CC(CC1C3)C2,"Matrix protein 2 (Influenza A virus, UniProt P0DOF5, S31N)",,,"concentration not given, pH 5.5, cell-based",,inhibition,0%
CC(C)C(=O)OC[C@H]1O[C@@H](n2ccc(NO)nc2=O)[C@H](O)[C@@H]1O,SARS-CoV-2,viral replication,"Vero C1008, Omicron BA.1","48 h, reduction of infectious virus",,EC90,9160 ± 370 nM
CCc1cc(=O)c2c(OCC(O)CN3CCOCC3)c3ccoc3c(OC)c2o1 (stereo not drawn),Mycobacterium tuberculosis,Alamar blue,"22/22, SIRE and linezolid resistant","21 days, 37 °C",,MIC,128 µg/mL
Cn1c[n+]([C@@H]2O[C@H](COP(=O)(O)OP(=O)([O-])OP(=O)(O)OC[C@H]3O[C@@H](n4cnc5c(=O)[nH]c(N)nc54)[C@H](O)[C@@H]3O)[C@@H](O)[C@H]2O)c2nc(N)[nH]c(=O)c21,rep nsp14,thermal shift,,500 µM,,ΔTm,2 °C
CCCCCCc1ccc(O)cc1O,rep papain-like protease,,,"concentration not given, C111S mutant",reference: positive control,activity,10.4%

# Some of these lines once more (sample 1):
Structure (SMILES),inhibition [%]
O=C(Oc1cccc2c1C(=O)C=CC2=O)c1ccccc1,36
CN(C)c1ccc(/C=C/c2ccc3ccccc3[n+]2C)cc1,38
CCN(CC)S(=O)(=O)N1CCC(C(=O)Nc2cccc(CCc3nc4cc(C)ccc4[nH]3)c2)CC1,47
Cc1oc2ncnc(N3CCC(C(=O)NCCc4cccs4)CC3)c2c1C,38
Oc1c(Cl)cc(Cl)cc1C1Nc2cc(Cl)c(C(F)(F)F)cc2N1 (stereo not drawn),37
